Published values from different studies.
Every numbered part comes from another study and shows a few of its results, in no order. Positions count from the first letter of the parent shown.

Study 1
Target: CCNB1, cyclin fold, Cln2 fusion (human)
Technique: yeast growth competition, sequencing
Matrix: yeast
Notes: weak parent motif
Baseline: not given
Reading: higher = stronger binding
Parent: RB1 docking peptide (human); PKPLKKLRFDIEG
| Change | normalised enrichment score |
| --- | --- |
| PKPLKKLRFDCEG [I11C] | 0.966 |
| PQPLKKLRFDIEG [K2Q] | 0.404 |
| RKPLKKLRFDIEG [P1R] | 0.826 |
| PKPLKNLRFDIEG [K6N] | 0.332 |
| PGPLKKLRFDIEG [K2G] | 0.395 |
| PKPLKKLRFDIEW [G13W] | 0.658 |
| PKVLKKLRFDIEG [P3V] | 0.151 |

Study 2
Target: Sal-like protein 4, full length isoform B (SALL4, Homo sapiens, UniProt Q9UJQ4-2, residues 1-616)
Technique: universal PBM
Molecule type: double-stranded DNA, one strand shown
Matrix: in vitro
Concentration: not given
Notes: 8-mer, flanks averaged, mean of replicates
Reading: higher = stronger binding
Residues (chain): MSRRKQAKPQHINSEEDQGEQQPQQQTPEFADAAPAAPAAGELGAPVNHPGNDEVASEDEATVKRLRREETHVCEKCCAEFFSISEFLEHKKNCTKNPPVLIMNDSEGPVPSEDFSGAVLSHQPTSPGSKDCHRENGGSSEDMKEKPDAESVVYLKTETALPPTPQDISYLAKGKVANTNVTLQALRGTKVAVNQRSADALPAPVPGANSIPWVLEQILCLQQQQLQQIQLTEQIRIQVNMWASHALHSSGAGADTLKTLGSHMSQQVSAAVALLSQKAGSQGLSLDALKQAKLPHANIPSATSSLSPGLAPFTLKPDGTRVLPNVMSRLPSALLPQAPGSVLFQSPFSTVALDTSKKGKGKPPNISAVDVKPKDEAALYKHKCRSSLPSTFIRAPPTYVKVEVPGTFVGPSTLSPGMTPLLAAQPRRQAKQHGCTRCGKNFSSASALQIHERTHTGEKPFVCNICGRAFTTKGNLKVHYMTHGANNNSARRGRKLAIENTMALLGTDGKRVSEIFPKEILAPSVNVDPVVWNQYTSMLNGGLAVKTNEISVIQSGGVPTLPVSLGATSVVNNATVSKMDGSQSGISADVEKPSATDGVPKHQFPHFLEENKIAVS
| Oligonucleotide | E-score |
| --- | --- |
| GCTGCCAC | -0.259 |
| AGACACAT | 0.037 |
| GGATGAGA | 0.0213 |
| ATCTACAA | 0.259 |
| CGCCTTGA | -0.217 |
| AAGACGCA | 0.0047 |

Study 3
Target: Fragile X messenger ribonucleoprotein 1, C-terminal low-complexity region (Fmr1, Mus musculus, UniProt P35922)
Technique: RNA Bind-n-Seq
Molecule type: RNA
Matrix: in vitro
Concentration: 200 nM
Notes: whole 134-nt RNA, ends assumed
With: 150 mM KCl
Baseline: input library
Reading: higher = stronger binding
| Oligonucleotide | log2 enrichment |
| --- | --- |
| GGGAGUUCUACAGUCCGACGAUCAAGUCCUGUGCUACACAUCGUAUGUACCGAAUCGGGAGGGUUUGGGAAAAAAAGGGAAAGUAUUAUGUUACGCCGUUCGGAUCUGCACUUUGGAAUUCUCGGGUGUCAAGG | 0.378 |
| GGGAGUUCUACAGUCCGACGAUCGUCCUGUGCUACACAUCGUAUGUACCGAAUCAAAUUUUUUUAAAUUUAAAUUUUUAAAAAAGUAUUAUGUUACGCCGUUCGGAUCUGCACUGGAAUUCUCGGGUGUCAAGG | -1.18 |
| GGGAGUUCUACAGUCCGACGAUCAAGUCCUGUGCUACACAUCGUAUGUACCGAAUCGGGUUUUUGGUUUUUGGUUUUUGGAAAGUAUUAUGUUACGCCGUUCGGAUCUGCACUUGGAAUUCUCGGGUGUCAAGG | -0.792 |
| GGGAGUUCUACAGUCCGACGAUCCAAGUCCUGUGCUACACAUCGUAUGUACCGAAUCGGGAGGGUGGGUUUUUUUGGGAAAGUAUUAUGUUACGCCGUUCGGAUCUGCACUUCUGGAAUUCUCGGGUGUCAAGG | 0.97 |
| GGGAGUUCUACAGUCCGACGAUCUAAUUGAAGAACCCAUUUUGCUCAUUUUAGGCAUCGUUAAAGAAUCUGGAGUGAAGCACAAGGGAUUGAUUGAAAUACCCAAUCUUUCUGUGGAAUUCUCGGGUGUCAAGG | 0.118 |
| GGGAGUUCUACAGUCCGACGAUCUCCUCAAGUCCUGUGCUACACAUCGUAUGUACCGAAUCGGUGGGGUGGGUGGAAAGUAUUAUGUUACGCCGUUCGGAUCUGCACUUCCAGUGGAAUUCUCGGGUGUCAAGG | 0.364 |
| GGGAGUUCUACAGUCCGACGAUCCACAGACAACACGCACCCACACAGACACAGAGGGAAGGGGUUGGGAUGGGGACAGGGUGCACAGCAGGGCGGGGUAGGACCCCAGCUCCUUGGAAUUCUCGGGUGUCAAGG | 1.22 |
| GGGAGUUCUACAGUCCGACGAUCUGGCCCUGGUGGCAUGCGCGGAGGAAGAGGUGGCCUCAUGGAUCGUGGUGGUCCCGGUGGAAUGUUCAGAGGUGGCCGUGGUGGAGACAGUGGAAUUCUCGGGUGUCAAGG | -0.0881 |
| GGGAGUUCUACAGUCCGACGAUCUCCUGUGCUACACAUCGUAUGUACCGAAUCGGGGCCCCCCGGCCCCCCGGCCCCCCGGGGAAAGUAUUAUGUUACGCCGUUCGGAUCUGCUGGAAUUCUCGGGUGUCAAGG | -0.14 |

Single results of other studies
| Substance | target | assay | test system | setting | how to read | endpoint | value |
| --- | --- | --- | --- | --- | --- | --- | --- |
| PhoQ, residues 284 288 289 292 302 303 ALVSVA | PhoP, residues 12 14 15 18 19 SEGLL (Escherichia coli, UniProt P23836) | Sort-seq, measured: YFP reporter | E. coli | PhoQ-PhoP variant library, with: 10 µM Mg2+ | baseline: high Mg2+ state, higher = stronger signaling | fold induction | 14.8 |

Repeated from above (study 2):
| Oligonucleotide | E-score |
| --- | --- |
| ATCTACAA | 0.259 |
| CGCCTTGA | -0.217 |
